Experimental data of several laboratories.
A part holds a random share of what one study measured.
Sequence of UniProt Q8IY84 (whole entry, looked up): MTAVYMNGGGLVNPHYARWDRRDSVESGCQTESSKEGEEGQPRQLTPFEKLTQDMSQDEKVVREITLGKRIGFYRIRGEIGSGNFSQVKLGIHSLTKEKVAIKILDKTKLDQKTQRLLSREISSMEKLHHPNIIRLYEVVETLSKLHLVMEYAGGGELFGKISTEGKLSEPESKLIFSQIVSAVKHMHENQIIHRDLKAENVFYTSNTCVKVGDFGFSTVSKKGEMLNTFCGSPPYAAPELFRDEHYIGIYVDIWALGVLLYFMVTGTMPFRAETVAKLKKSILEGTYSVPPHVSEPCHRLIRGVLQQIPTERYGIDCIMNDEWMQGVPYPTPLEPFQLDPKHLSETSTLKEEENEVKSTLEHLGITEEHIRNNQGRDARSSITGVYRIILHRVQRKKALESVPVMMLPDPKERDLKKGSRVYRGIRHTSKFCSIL
Sequence of UniProt P35590 (whole entry, looked up): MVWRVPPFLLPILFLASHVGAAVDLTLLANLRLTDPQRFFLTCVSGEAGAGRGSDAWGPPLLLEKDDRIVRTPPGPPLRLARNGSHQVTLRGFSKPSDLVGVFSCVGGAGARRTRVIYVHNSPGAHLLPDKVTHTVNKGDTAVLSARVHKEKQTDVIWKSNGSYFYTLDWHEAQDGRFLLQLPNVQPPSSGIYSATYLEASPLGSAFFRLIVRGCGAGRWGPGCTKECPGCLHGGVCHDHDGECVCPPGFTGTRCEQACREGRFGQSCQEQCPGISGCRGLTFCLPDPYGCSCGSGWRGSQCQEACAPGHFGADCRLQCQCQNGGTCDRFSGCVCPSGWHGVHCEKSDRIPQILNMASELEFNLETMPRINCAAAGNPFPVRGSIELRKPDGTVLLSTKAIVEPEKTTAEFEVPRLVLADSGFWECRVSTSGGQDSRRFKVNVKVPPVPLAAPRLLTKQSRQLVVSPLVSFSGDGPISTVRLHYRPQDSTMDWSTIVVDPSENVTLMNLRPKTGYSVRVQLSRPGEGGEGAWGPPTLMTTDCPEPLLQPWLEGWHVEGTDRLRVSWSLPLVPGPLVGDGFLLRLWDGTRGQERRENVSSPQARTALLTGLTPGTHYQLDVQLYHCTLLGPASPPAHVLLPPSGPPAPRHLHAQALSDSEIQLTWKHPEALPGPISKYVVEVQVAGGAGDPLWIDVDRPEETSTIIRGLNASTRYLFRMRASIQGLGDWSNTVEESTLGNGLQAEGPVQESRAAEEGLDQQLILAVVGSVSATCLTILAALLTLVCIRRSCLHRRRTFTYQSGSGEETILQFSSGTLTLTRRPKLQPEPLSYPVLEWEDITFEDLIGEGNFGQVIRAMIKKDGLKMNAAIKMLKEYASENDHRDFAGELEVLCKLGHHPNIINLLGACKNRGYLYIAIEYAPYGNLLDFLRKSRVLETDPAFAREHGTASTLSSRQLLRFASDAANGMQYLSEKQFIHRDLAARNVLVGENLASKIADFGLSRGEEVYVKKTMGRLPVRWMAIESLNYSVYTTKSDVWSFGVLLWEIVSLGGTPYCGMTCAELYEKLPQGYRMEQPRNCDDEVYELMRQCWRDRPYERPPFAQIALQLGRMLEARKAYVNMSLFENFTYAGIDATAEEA
Sequence of UniProt Q96PN8 (whole entry, looked up): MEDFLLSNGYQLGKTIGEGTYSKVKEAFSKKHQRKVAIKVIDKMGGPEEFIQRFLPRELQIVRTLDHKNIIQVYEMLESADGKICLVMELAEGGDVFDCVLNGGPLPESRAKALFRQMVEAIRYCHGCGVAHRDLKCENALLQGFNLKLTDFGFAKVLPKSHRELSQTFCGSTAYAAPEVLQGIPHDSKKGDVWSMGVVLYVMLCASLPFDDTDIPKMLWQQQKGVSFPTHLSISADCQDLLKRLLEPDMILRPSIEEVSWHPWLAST
Sequence of UniProt Q16816 (whole entry, looked up): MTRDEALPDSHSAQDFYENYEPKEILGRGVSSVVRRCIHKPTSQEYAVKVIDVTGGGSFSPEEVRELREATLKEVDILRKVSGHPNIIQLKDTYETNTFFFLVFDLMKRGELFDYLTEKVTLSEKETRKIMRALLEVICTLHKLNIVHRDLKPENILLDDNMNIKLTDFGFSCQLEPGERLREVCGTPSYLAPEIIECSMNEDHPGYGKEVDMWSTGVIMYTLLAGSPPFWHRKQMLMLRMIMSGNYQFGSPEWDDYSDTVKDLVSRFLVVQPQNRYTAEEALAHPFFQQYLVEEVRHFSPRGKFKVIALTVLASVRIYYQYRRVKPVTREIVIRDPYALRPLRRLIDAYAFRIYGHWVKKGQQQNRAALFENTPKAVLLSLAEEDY
Sequence of UniProt P00519 (whole entry, unmodified, looked up): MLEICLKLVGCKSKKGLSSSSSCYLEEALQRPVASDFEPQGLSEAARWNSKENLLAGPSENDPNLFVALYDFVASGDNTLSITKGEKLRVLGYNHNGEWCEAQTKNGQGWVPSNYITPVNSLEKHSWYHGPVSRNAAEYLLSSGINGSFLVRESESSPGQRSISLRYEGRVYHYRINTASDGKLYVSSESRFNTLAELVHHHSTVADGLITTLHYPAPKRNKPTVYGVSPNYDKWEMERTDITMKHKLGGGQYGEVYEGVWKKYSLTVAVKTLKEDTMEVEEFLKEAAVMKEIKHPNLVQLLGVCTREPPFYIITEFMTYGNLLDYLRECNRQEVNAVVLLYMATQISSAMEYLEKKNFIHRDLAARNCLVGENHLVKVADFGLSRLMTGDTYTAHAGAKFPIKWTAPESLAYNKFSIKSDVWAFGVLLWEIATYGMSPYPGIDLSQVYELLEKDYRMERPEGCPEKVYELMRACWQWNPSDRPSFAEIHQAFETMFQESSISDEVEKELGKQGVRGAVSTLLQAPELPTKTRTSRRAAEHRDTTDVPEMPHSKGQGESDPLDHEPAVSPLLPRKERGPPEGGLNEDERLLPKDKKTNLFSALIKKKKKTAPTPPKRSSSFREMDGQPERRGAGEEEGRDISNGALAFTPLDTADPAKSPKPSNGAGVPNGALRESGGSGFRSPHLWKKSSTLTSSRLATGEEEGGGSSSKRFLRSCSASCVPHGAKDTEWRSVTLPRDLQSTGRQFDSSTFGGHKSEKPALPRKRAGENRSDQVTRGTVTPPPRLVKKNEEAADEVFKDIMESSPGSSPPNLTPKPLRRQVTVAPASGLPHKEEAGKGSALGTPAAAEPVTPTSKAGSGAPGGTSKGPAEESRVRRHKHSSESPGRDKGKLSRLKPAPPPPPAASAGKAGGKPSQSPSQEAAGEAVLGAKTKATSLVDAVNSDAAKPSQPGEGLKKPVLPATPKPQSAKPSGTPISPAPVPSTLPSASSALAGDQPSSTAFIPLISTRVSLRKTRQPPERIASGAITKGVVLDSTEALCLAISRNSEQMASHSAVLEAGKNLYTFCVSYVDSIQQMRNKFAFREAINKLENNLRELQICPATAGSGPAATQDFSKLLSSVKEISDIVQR

Series 1
SMILES: CN(c1ccnc(CNc2nc(Nc3ccc4c(c3)CC(=O)N4)ncc2C(F)(F)F)n1)S(C)(=O)=O
Read-out: cell-free assay
Method: competition with immobilised ligand
Tested at: 1 µM
target	remaining binding
Tyrosine-protein kinase receptor Tie-1 (TIE1, Homo sapiens, UniProt P35590)	17%
Serine/threonine-protein kinase NIM1 (NIM1K, Homo sapiens, UniProt Q8IY84)	9.5%
Testis-specific serine/threonine-protein kinase 3 (TSSK3, Homo sapiens, UniProt Q96PN8)	80%
Phosphorylase b kinase gamma catalytic chain, skeletal muscle/heart isoform (PHKG1, Homo sapiens, UniProt Q16816)	76%
Tyrosine-protein kinase ABL1, phosphorylated (ABL1, Homo sapiens, UniProt P00519, F317L)	84%

Series 2
Host: mouse
Medium: microsomes or S9
Tested at: 2 µM
Time: 0.5 h
Structure (SMILES)	remaining compound
CC(C)(C)OC(=O)N1c2ccccc2[C@H]2OC(=O)C[C@H]21	59.5%
NS(=O)(=O)c1cccc(S(=O)(=O)N2CCCc3c2cccc3S(N)(=O)=O)c1	103%
CC1(C)CC(CNCCC(c2ccc(F)cc2)c2ccco2)CCO1 (centres unmarked)	7.45%

Series 3
Target: Beta-1 adrenergic receptor (ADRB1, Homo sapiens, UniProt P08588)
Sequence of UniProt P08588 (whole entry, looked up): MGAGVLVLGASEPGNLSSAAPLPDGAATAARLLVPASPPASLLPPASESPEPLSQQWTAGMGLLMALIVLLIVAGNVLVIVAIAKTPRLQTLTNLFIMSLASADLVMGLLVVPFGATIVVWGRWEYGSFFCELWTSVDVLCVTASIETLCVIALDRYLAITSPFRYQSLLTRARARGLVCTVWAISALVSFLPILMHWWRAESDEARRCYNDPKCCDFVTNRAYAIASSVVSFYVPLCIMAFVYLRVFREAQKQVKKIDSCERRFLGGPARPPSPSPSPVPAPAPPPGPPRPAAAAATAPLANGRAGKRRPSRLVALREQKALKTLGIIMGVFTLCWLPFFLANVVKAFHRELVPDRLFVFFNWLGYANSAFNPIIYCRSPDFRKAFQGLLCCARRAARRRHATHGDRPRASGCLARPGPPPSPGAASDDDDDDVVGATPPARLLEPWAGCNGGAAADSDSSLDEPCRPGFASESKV
Action: antagonist
SMILES	IC50 [µM]
Cc1ccccc1-n1nc(-c2c(-c3ccc(F)cc3)nn3c2NC[C@@H](CO)C3)ccc1=O	≥ 100
Cc1noc2c(NC3CCOCC3)cc(-c3ccsc3)nc12	≥ 100
N#Cc1cc2c(nc1N1CCCC(COc3ncccc3C(F)(F)F)C1)CCOC2 (centres unmarked)	≥ 100

Series 4
Target: Casein kinase I isoform epsilon (CSNK1E, Homo sapiens, UniProt P49674)
Sequence of UniProt P49674 (whole entry, looked up): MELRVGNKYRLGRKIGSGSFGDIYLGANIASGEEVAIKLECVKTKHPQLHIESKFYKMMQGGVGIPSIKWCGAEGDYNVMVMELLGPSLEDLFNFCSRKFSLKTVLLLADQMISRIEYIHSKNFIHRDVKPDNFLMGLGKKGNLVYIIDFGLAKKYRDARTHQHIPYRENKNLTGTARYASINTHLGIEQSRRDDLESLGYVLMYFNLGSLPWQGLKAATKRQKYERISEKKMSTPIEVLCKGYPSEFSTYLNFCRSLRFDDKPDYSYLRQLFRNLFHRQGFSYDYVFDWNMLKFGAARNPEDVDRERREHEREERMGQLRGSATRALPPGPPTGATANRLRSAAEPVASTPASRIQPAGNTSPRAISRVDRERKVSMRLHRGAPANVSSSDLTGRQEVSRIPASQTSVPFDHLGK
Read-out: enzyme activity
Action: inhibitor
Tested at: 0.5 µM
Baseline: control
Structure (SMILES)	remaining activity
CNC(=O)c1cc(Oc2ccc(NC(=O)Nc3ccc(Cl)c(C(F)(F)F)c3)cc2)ccn1	95.9%
CN(C)c1ccc(C=C2C(=O)Nc3ccccc32)cc1	57.2%
Cc1nc(-c2ccccc2)c(-c2ccncc2)o1	69.9%
O=C(CCCc1ccc(-c2ccccc2F)cc1)Nc1ccc(O)cc1	99.4%
NCCNc1ncc(C(N)=O)c(Nc2cccc(C(F)(F)F)c2)n1	91.4%
Cc1ccc(NC(=O)c2ccc(CN3CCN(C)CC3)cc2)cc1Nc1nc(-c2cccnc2)cs1	98.8%
O=C1NC(=O)C(c2cn(CCCO)c3ncccc23)=C1c1cnccn1	93.9%
COc1ccc(C(=O)Nc2sc3c(c2C(N)=O)CCCC3)cc1OC	94%
COc1cc2ncnc(Nc3ccc(Oc4ccccc4)cc3)c2cc1OC	100%
Nc1[nH]nc2nc3ccccc3nc12	90.2%
N#CC(C#N)=C(N)/C(C#N)=C/c1ccc(O)cc1	92.4%
C#Cc1cccc(Nc2ncnc3cc(OCCOC)c(OCCOC)cc23)c1	98.2%
Cn1c2ccccc2c2c3c(c4c5ccccc5n(CCC#N)c4c21)CNC3=O	80.4%

Further values, each from its own experiment
SMILES	target or system	assay	system	setting	endpoint	result
CC(C)n1cnc(-c2ccc(F)cc2)c1-c1ncc(C(=O)Nc2ccc(N3CCN(C)CC3)cc2)[nH]1		phase 2a clinical trial	patients with idiopathic pulmonary fibrosis	60 mg once daily	patients with Appendicitis TEAE	0%
COc1cc(C(=O)N2CCC(N3CCN(C)CC3)CC2)ccc1Nc1ncc2c(n1)N(C)c1ccccc1C(=O)N2C	PIP5K1C (mouse)	KiNativ ATP probe	mouse brain tissue	1 µM, ATP site probe	inhibition	-5%

Repeated from above (series 4):
Structure (SMILES)	remaining activity
COc1cc2ncnc(Nc3ccc(Oc4ccccc4)cc3)c2cc1OC	100%
O=C(CCCc1ccc(-c2ccccc2F)cc1)Nc1ccc(O)cc1	99.4%
